Measured values of several laboratories.
Each line is one published result; not all experiments were run side by side.

SMILES	assay	system	conditions	quantity	value
COc1ncnn2ccc(-c3cnc4nc(C)n(Cc5nnc([C@@H](C)F)o5)c4c3)c12	–	human	oral, dose not given, grade 2	patients with increased blood creatinine	7.1%
Cn1cncc1-c1c(F)cncc1NC(=O)c1c(N)nn2cc(F)cnc12	–	human patients	oral, 180 mg once daily, 21 days, 2 weeks on 1 week off	patients with upper GI haemorrhage DLT	0%
N[C@@H]1c2ccccc2OC12CCN(c1cnc3c(N4CCCc5ncccc54)n[nH]c3n1)CC2	item: Fatigue	human advanced or metastatic solid tumours	oral, 60 mg once daily, phase Ia pooled cohort	patients with treatment-emergent adverse event	40%
C=CC(=O)Nc1cc(Nc2nccc(Nc3cc(Cl)c(F)cc3C(C)(C)O)n2)c(OC)cc1N1CC[C@@H](N(C)C)C1	–	human patients	oral, 200 mg, treatment-emergent adverse events	patients with amylase increased	12.5%
Cc1cn([C@H]2O[C@@H](CO[P@@](=O)(N[C@@H](C)C(=O)OC(C)C)Oc3ccccc3)[C@H](O)[C@H]2F)c(=O)[nH]c1=O	item: grade 1/2	human	10 mg	patients with ALT/AST elevation	0%
O=C1Nc2cc3[nH]nc(-c4ccncc4)c3cc2CN1Cc1ccccc1	CTCAE v4.03	human, relapsed or refractory advanced solid tumours	intravenous, 7.2 mg/kg	patients with subretinal fluid	0%
COc1ccc(-c2c(-c3ccc(C#N)c(F)c3)nc(N3CCC(N)CC3)n(C)c2=O)cc1F	item: cauda equina syndrome	human patients	oral, dose not given, dose escalation	patients with serious TEAE	2%
C[C@]1(O)C[C@@](N)(c2ccc(-c3nc4n(c3-c3ccccc3)COc3ccncc3-4)cc2)C1	–	human, advanced or metastatic solid tumours	20 mg once daily, phase I dose escalation	patients with Pruritus TEAE	16.7%
Cn1nc(NS(C)(=O)=O)c2c(Cl)ccc(-n3c([C@H](Cc4cc(F)cc(F)c4)NC(=O)Cn4nc(C(F)F)c5c4C(F)(F)[C@@H]4C[C@H]54)nc4nc(OCCC(F)(F)F)ccc4c3=O)c21	item: total cholesterol grade 1 increase	human	200 mg once daily, powder in bottle	patients with laboratory abnormality	0%
CN(C)C(=O)c1cc2cnc(Nc3ccc(N4CCNCC4)cn3)nc2n1C1CCCC1	item: Reproductive toxicity, AESI	human, HR+/HER2− advanced breast cancer	oral, dose not given, all grades, CTCAE v4.03	patients with adverse event	0%
C[C@@H]1OC(=O)NN=C1c1ccc(-c2ccc(F)cc2)c(C(F)(F)F)c1	phase I trial, item: Nausea all grades	human patients	5 mg loading then 0.25 mg daily	patients with adverse event	100%

Excerpt of the above:
SMILES	assay	system	conditions	quantity	value
CN(C)C(=O)c1cc2cnc(Nc3ccc(N4CCNCC4)cn3)nc2n1C1CCCC1	item: Reproductive toxicity, AESI	human, HR+/HER2− advanced breast cancer	oral, dose not given, all grades, CTCAE v4.03	patients with adverse event	0%
C[C@@H]1OC(=O)NN=C1c1ccc(-c2ccc(F)cc2)c(C(F)(F)F)c1	phase I trial, item: Nausea all grades	human patients	5 mg loading then 0.25 mg daily	patients with adverse event	100%
